Measurements gathered from unrelated publications.
Every numbered part comes from another study and shows a few of its results, in no order.
Chain of UniProt P51955 (whole entry, looked up): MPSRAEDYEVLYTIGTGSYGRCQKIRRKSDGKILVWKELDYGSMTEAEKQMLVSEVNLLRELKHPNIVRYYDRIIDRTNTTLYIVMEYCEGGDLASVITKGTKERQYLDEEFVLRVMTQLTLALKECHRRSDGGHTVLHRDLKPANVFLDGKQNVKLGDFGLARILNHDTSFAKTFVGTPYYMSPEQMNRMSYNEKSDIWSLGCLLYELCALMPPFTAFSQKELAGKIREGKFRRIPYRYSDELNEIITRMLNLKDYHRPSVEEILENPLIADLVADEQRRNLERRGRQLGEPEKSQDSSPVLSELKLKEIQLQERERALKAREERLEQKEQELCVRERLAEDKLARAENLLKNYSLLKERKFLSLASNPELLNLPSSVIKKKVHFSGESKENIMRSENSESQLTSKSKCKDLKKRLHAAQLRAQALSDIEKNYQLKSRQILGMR
Chain of UniProt O95747 (whole entry, looked up): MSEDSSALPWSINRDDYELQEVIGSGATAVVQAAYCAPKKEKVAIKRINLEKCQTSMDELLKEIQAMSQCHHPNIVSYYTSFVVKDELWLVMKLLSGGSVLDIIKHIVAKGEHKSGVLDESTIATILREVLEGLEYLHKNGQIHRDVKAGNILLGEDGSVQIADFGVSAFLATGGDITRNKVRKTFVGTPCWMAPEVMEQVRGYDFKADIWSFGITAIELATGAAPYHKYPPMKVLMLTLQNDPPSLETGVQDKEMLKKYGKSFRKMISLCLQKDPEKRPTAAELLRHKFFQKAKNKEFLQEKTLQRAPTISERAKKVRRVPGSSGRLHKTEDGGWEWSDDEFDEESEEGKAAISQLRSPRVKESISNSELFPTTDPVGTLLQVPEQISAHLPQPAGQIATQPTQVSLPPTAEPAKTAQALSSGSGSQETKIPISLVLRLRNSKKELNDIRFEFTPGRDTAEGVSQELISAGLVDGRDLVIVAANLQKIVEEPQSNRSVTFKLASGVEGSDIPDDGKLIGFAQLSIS
Chain of UniProt P35626 (whole entry, looked up): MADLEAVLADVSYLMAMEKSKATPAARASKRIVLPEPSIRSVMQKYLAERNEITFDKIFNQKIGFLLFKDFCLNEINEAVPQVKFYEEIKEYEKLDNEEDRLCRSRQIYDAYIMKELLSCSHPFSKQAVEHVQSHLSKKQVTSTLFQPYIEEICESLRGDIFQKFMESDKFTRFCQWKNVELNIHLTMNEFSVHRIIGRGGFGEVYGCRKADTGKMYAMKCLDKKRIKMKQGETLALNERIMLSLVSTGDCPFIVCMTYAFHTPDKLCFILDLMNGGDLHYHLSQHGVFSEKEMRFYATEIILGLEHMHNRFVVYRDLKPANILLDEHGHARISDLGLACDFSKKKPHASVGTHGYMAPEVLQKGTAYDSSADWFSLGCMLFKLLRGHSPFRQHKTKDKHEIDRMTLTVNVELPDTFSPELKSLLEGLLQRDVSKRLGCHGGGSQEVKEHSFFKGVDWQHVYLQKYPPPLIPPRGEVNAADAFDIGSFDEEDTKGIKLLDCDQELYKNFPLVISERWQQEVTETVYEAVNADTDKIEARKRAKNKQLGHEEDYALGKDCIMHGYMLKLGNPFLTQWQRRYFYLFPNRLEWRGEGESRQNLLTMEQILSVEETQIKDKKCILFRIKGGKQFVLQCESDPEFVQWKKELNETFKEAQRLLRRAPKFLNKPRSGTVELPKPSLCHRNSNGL
Chain of UniProt Q13557 (whole entry, looked up): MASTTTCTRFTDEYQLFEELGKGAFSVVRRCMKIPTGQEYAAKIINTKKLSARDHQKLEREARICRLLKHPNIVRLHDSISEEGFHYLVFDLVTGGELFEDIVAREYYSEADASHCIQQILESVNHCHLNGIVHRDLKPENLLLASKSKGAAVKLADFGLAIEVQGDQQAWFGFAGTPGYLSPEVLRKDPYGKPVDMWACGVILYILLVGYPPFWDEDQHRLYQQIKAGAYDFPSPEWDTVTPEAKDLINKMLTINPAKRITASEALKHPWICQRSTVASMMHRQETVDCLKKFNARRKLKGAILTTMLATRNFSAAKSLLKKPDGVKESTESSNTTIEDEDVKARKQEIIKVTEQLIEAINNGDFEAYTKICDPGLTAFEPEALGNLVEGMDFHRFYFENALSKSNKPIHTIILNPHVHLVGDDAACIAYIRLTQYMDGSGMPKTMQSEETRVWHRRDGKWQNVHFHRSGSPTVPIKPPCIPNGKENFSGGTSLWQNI
Chain of UniProt P05771 (whole entry, looked up): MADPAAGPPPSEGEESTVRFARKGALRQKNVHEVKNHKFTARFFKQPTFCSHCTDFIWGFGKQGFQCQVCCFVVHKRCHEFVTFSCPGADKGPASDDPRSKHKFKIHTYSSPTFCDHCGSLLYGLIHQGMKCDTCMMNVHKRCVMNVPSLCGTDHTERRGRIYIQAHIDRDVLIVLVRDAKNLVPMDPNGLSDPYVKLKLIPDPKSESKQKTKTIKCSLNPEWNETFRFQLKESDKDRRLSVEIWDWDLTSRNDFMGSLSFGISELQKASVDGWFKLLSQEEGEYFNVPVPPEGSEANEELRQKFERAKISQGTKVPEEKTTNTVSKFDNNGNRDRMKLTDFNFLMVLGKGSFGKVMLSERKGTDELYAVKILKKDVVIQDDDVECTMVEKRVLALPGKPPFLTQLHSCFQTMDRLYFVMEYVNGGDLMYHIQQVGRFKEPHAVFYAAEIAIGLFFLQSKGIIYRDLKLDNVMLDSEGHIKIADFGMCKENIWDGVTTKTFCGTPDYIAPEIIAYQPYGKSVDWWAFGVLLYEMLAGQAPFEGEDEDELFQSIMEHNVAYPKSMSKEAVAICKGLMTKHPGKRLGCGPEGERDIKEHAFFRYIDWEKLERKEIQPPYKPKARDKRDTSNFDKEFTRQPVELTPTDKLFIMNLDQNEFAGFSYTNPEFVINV
Chain of UniProt Q99759 (whole entry, looked up): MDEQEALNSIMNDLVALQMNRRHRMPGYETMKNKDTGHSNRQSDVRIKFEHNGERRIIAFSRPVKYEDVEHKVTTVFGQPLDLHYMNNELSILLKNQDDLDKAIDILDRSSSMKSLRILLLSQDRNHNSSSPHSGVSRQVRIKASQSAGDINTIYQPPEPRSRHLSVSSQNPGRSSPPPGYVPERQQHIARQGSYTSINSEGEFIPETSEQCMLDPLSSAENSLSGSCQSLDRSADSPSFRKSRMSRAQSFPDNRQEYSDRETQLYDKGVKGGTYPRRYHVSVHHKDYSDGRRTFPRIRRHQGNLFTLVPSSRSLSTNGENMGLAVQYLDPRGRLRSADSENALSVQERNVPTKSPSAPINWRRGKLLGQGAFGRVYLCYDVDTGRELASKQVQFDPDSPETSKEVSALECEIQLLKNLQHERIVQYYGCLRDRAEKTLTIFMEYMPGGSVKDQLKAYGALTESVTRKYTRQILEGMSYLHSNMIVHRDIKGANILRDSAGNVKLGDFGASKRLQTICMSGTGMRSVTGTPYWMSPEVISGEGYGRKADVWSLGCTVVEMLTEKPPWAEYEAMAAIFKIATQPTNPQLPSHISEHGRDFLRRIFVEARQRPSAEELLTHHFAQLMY
Chain of UniProt P37173 (whole entry, looked up): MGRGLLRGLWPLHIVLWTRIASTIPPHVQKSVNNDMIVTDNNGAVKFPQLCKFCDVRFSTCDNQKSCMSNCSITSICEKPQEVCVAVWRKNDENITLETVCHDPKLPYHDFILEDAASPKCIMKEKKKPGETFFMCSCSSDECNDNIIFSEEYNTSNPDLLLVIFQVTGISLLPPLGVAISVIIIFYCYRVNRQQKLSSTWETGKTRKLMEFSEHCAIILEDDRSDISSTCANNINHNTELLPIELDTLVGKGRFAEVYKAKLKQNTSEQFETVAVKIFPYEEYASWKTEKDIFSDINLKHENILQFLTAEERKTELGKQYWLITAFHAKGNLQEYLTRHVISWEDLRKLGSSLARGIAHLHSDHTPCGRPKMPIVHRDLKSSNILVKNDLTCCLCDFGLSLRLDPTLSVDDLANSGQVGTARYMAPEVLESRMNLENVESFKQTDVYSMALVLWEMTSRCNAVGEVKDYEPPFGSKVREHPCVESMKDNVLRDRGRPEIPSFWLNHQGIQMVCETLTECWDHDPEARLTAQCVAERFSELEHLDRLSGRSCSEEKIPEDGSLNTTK
Chain of UniProt P11802 (whole entry, looked up): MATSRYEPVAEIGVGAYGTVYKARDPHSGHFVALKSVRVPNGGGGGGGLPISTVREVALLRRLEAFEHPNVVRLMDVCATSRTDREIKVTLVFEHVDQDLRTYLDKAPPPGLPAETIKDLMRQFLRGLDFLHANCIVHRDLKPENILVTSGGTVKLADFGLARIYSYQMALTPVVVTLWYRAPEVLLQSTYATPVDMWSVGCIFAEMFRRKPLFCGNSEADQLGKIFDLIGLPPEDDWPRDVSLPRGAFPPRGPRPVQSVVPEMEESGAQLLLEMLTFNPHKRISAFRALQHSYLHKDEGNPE

Study 1 — method: RNA Bind-n-Seq; form: RNA; sample: in vitro; concentration: 20 nM; setting: 6-mer, flanks averaged, single round; together with: 150 mM KCl; baseline: input library; direction: higher = stronger binding
Target: TAR DNA-binding protein 43, full length, His tag (TARDBP, Homo sapiens, UniProt Q13148, residues 1-414)
Sequence	6-mer enrichment (R)
CUCUUA	0.556
UUGAUU	0.61
CACUAU	0.593
CCCGAC	0.66
GCGACA	0.965
CCACCG	0.706
UGUGUU	1.06
GACCCC	0.714

Study 2 — observed: ligand displacement; concentration: 10 µM
Target: D(3) dopamine receptor (DRD3, Homo sapiens, UniProt P35462)
Chain of UniProt P35462 (whole entry, looked up): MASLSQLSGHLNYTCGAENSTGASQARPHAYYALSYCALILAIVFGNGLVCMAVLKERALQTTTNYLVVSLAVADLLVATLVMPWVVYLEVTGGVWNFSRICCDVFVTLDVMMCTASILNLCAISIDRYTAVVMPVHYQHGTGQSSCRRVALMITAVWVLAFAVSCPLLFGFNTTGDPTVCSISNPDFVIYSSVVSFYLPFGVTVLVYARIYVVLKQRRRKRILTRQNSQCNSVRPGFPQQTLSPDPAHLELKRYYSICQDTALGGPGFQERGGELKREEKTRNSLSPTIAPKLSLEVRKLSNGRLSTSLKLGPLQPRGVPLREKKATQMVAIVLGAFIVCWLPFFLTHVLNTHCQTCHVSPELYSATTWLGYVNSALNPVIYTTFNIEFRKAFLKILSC
Structure (SMILES)	inhibition [%]
CCC(F)(F)c1cc(N2CCC(S(C)(=O)=O)CC2)nc2sc(C(N)=O)c(N)c12	51.5
Cc1noc([C@H]2C[C@@H](c3ccc(C(F)(F)F)cc3)CN(C(=O)N3CCS(=O)(=O)C3)C2)n1	-2.97
CC(=O)Nc1ncc(CN2CCC[C@H](Cc3cc(C)nc(C)c3)C2)s1	10.3
Cc1ncc(-c2cc(Cl)ccc2F)cc1-n1c(=O)n(CC(N)=O)c2ccccc21	-17
CCOc1ccc(S(=O)(=O)Nc2ccc(Cl)cc2C#Cc2cnc(C(=O)O)cc2OC)c2ncccc12	-30.5
N#CC1(c2ccccn2)CCN(Cc2cc(C(=O)N3CCCC3)c(=O)n3ccccc23)CC1	-12.8
COc1cc(-c2cn(C3CCc4c(F)cccc4N(CC(F)(F)F)C3=O)nn2)ccc1-n1cnc(C)c1 (stereo not drawn)	3.33
Cc1cc(Nc2nccc(C)n2)cc(-c2cnc([C@@]3(O)CC[C@H](C(=O)O)C(C)(C)C3)s2)c1	-5.53
COc1ccc2cc(OCC3(C(=O)O)CN(C(=O)c4ccc(F)cc4)C3)ccc2c1	33
C[C@@H]1CN(c2cc(-c3n[nH]c4ccc(OC5(C)CC5)cc34)ncn2)C[C@H](C)O1	-0.66
Cc1ccc(-c2cnc([C@@]3(O)CC[C@H](C(=O)O)C(C)(C)C3)s2)cc1Nc1cccc(C(F)(F)F)n1	-8.44

Study 3 — method: RNA Bind-n-Seq; form: RNA; sample: in vitro; concentration: 365 nM; baseline: no-protein control; direction: higher = stronger binding
Target: RNA binding protein fox-1 homolog 2, RRM domain, GST-SBP tag (RBFOX2, Homo sapiens, UniProt O43251-10, residues 100-194)
Setting: natural RNA segment, single round, ends assumed
Constant ends, left off below: GGGAGUUCUACAGUCCGACGAUC … UGGAAUUCUCGGGUGCCAA
Construct (chain): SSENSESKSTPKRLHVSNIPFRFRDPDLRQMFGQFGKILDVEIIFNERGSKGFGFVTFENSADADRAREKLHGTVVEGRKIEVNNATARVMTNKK
Sequence	RBNS enrichment (R)
CUGAGGAAUUCUUGUACGCAGUUUUCUUUGGCUUUACGAAGCCGAUUAAAAGACCGUGUGAAAUGAACCUUGCUCUGACAAUUCCCUUGCAUUGCACCACACACUCCUUG	0.544
CAGCCAGCUGGUUCUCCCGGGACACCAGCAGAUCCACACCCUGGGCACCUCCGUGUUUGGUCUUUUUUUUCCCCUGUGUGAAAGAAGAAACGGCACGACCCCUUCUCAAG	0.308
CAAAGGCGAGAGGUUUUUCUUCCUGGCCCCCCAGUGUGGGUUUCUUCCUGUGAACUCACUCUGUGCCCCUGUUGUCCACAGGAUUCCAGUCUCCUGUUCUCAGUCAGGCU	0.238
AUGAUCAAGCAAAGCUCCCAAGCCAAAGGGUAGCAGAGGGUGGCUACGUGGUUUUUAGGUAGAUGUUCCCAGGUGCCCUCUCUUGAGCUGGGUCUGAGGUUAUCCCUGUC	0.596
GGGCUAGUCUUUCCUGAAUUCUAAUUUUGUUGCUCUGGAAGUGUUAACUGUGAUCCAGUACCUGUAAUACAGGAACACACAAUGUAUAUGGGGAAGCCCUUUGGCUUCAG	0.528
CACCCAGUCCUUAGGACAAGUAGAAAGGGGCAUUCUGGCACUUGGCAUAACCUAUGCCACGAUGGUGAGAUAAUGUGAAAAAGUGGUAUCCUCUGAUGUCAGCGUAUUAG	0.352
ACGAACUCCAGUGUGAUCAUACGAGUCUGUCAGUCUAGUCAAAAGGCCGCCAUUUUGGCAAGACAAUCUGAAUGUGCCUUCCUGGAGCUGUCGGCUGGAAUCCCUCAUGA	0.451
GUUUCUCAUUUACUUUUUACUCUUAAUACUAAUGCUUAUGUGUUUCACUGAGUAUCAAAACUGCCAAGAAGGGUAACUAAGGUUCCUAAACUGUAAGAUGAGCAGGAGAU	0.292

Study 4 — SMILES: Cn1nc2c3c(cccc31)C(=O)c1ccccc1-2; observed: enzyme activity; action: inhibitor; concentration: 0.5 µM; baseline: control
target	remaining activity [%]
TGF-beta receptor type-1 (TGFBR1, Homo sapiens, UniProt P36897)	93.7
TGF-beta receptor type-2 (TGFBR2, Homo sapiens, UniProt P37173)	94.9
Cyclin-dependent kinase 4, with cyclin D1 (CDK4, Homo sapiens, UniProt P11802)	98.9
Mitogen-activated protein kinase kinase kinase 3 (MAP3K3, Homo sapiens, UniProt Q99759)	94.4
Death-associated protein kinase 2 (DAPK2, Homo sapiens, UniProt Q9UIK4)	104
Inhibitor of nuclear factor kappa-B kinase subunit beta (IKBKB, Homo sapiens, UniProt O14920)	103
Death-associated protein kinase 1 (DAPK1, Homo sapiens, UniProt P53355)	86.4
Serine/threonine-protein kinase OSR1 (OXSR1, Homo sapiens, UniProt O95747)	102
Calcium/calmodulin-dependent protein kinase type II subunit delta (CAMK2D, Homo sapiens, UniProt Q13557)	90
Inhibitor of nuclear factor kappa-B kinase subunit epsilon (IKBKE, Homo sapiens, UniProt Q14164)	92.3
Protein kinase C beta type, isoform beta-I (PRKCB, Homo sapiens, UniProt P05771)	94.7
G protein-coupled receptor kinase 3 (GRK3, Homo sapiens, UniProt P35626)	93.6
Calcium/calmodulin-dependent protein kinase kinase 2 (CAMKK2, Homo sapiens, UniProt Q96RR4)	74.9
STE20/SPS1-related proline-alanine-rich protein kinase (STK39, Homo sapiens, UniProt Q9UEW8)	101
Serine/threonine-protein kinase Nek2 (NEK2, Homo sapiens, UniProt P51955)	88.2
Cyclin-dependent kinase 5, with p25 (CDK5, Homo sapiens, UniProt Q00535)	92.2
Mitogen-activated protein kinase 9 (MAPK9, Homo sapiens, UniProt P45984)	85.2
Serine/threonine-protein kinase Chk2 (CHEK2, Homo sapiens, UniProt O96017)	89.8
Serine/threonine-protein kinase 10 (STK10, Homo sapiens, UniProt O94804)	94.5
Protein kinase C alpha type (PRKCA, Homo sapiens, UniProt P17252)	96.1
cAMP-dependent protein kinase catalytic subunit alpha (PRKACA, Homo sapiens, UniProt P17612)	104

A few entries again (study 4):
target	remaining activity [%]
Serine/threonine-protein kinase Chk2 (CHEK2, Homo sapiens, UniProt O96017)	89.8
Serine/threonine-protein kinase Nek2 (NEK2, Homo sapiens, UniProt P51955)	88.2
Serine/threonine-protein kinase 10 (STK10, Homo sapiens, UniProt O94804)	94.5
Inhibitor of nuclear factor kappa-B kinase subunit epsilon (IKBKE, Homo sapiens, UniProt Q14164)	92.3
TGF-beta receptor type-2 (TGFBR2, Homo sapiens, UniProt P37173)	94.9
Calcium/calmodulin-dependent protein kinase kinase 2 (CAMKK2, Homo sapiens, UniProt Q96RR4)	74.9
TGF-beta receptor type-1 (TGFBR1, Homo sapiens, UniProt P36897)	93.7
Mitogen-activated protein kinase kinase kinase 3 (MAP3K3, Homo sapiens, UniProt Q99759)	94.4
